Assay results of several laboratories.
Parts stem from different laboratories: compare values within a part only. Changes are numbered by the printed parent chain.

Series 1
Target: RNA binding protein fox-1 homolog 2, RRM domain, GST-SBP tag (RBFOX2, Homo sapiens, UniProt O43251-10, residues 100-194)
Technique: RNA Bind-n-Seq
Form: RNA
Matrix: in vitro
Concentration: 365 nM
Notes: natural RNA segment, single round, ends assumed
Baseline: no-protein control
Direction: higher = stronger binding
Constant ends, left off below: GGGAGUUCUACAGUCCGACGAUC … UGGAAUUCUCGGGUGCCAA
Construct (chain): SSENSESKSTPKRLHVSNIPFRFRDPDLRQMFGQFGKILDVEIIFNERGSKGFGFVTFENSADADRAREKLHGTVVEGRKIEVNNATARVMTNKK
Oligonucleotide	RBNS enrichment (R)
AGCUCAGUGCCAACUAAAACAAAGCACAAAGUUCUCAGAGCUCUUGAGGAAAUGGUUGUCUCCCUGUCCCCAGGCAGGCCUCUUCCCCUCCCUGUCCUGUAAAUAUCCCU	0.368
GCAGUGAGUGGUUCCAUAUGGCUCUGUUCAAACUGAGCACAUUUUGCCUUUUUUCUUUCUUUUCUUGGGGGGAUGGGAUAAAUGGGAUAUUUUUUAAAGAAUAAAUCCCG	0.405
UUGCCAACAAGAAUGUGUGGCGCCCCACAUCUCCCUACCUUGCACUCUAGGGCCAGACCACUCUCUGUAUGGACCAGACCAUCUUCCCAAACCCAUGGUGCUUUCCCCCC	0.541
GUGGAGACCCUUAAAUCCACACUGUGCUCCAAAACUCCCUCUGCUGAUACUCCUUGGAGACACCCUCUUUGGCCCUCACUACUUGACCAGACUGGUACUUGAGUCCUUCU	0.636
AAGAAAAAAUUGUACAGGGAGUUUAGUGAAUUUUCCAUCAGGUUGGCCAUUACUUUCUUUCUCUAAAGUCUCAGGAUGUCUGGAAGCAAGGAAAGACAAAAGACUUGAAG	0.651
AUUGCUGUUAGAAUAGUGUUGUAUCAGGUAUGUGACCAUUUCAGAAGGCUGAACUUACAUAGAGGUUUUACUCAGCAAUACUUAGAUGUCUAACAGUUUAAUUGCUCCAG	0.563
AUUGUCCCCAAGCUCUGGAUUUUUUUCUCUCCAGGACCCAAGUUUUAGGCAGUGAGUAAUGCUUAUAAGCAAAUUACUGAAGGAUUUAAAAAUGGACAGCCAAUGUGUUC	0.446
UUUAUUUUGUUAUAAUUUAGUUACCAUUUUCAGUGUUAUUUCAAAGGUUCUUUGAAGAAUUUUGGGGCAGGGCAUCAGAUUAGAGUUUUAAAAUUUGAGUAUUUUGGAUA	0.696
AGCCUUUCAUAGACUCAUAGGGAAUAAAGCCAAAUGUAGCUCUUACUCUUUAUAAAAUAAAGUGUUAGGUAAAUUGAGAAGACCAUUCCAUCAUUGAAGUGUUGGGAUAU	0.364
ACUUGGCGCAAGUGACUUGUGCCUCCUUGUCUGUCCUUUGUCAGCACAGGUGCAGGCAAACCCUUCCAGCUGGGUUAAUUGCCGUUUAUGGUUUACUCACUUAGGGAAAG	0.299
UCCCUGUGGUGGUCCUUAGGCACCAGUCUUUGUUAAACAAAACCCUUUGGCACUAUUGUGGUUUUCUAUUCUCUGUCUGAACUCUAUUCAAAAGUAUCUUUGCUCUCUUG	0.797
UUGAAUGUCAUAGAGCAUAUUUUCUCUUUUUGCCUGUUUGCACUCUGCCAUUGCACUUUGUAAAUCUGUAGAAUCGCUCGUAUAAAAUUUCUAUUAAAGAUUCUAGUGAA	4.43

Series 2
Target: CCNA1, cyclin fold, Cln2 fusion (human)
Technique: yeast growth competition, sequencing
Matrix: yeast
Notes: weak parent motif
Baseline: not given
Direction: higher = stronger binding
Starting sequence: RB1 docking peptide (human); PKPLKKLRFDIEG; partner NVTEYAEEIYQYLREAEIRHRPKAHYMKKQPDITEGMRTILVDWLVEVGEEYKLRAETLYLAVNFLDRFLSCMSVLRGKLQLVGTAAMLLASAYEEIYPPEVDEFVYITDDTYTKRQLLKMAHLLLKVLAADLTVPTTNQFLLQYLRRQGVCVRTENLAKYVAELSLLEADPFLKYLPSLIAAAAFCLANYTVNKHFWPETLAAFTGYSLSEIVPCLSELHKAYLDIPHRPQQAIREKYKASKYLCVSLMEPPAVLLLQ
Variant	normalised enrichment score
PKPLKKLRFDIEN [G13N]	0.0927
PKPLKKTRFDIEG [L7T]	0.282
PKPLKDLRFDIEG [K6D]	0.394
PKPHKKLRFDIEG [L4H]	0.0586
PKPLKKLRFDING [E12N]	0.196
IKPLKKLRFDIEG [P1I]	0.214
PKPLKKLRFDIHG [E12H]	-0.115
PEPLKKLRFDIEG [K2E]	0.138
PKPLKKLRFSIEG [D10S]	-0.326
PKPLKKLRFDYEG [I11Y]	0.146
PKPLKKLRFRIEG [D10R]	0.718
PKPLAKLRFDIEG [K5A]	-0.0163
PKPLKKLGFDIEG [R8G]	-0.118
PKPLKKLRFMIEG [D10M]	0.414
NKPLKKLRFDIEG [P1N]	0.344
PKPLGKLRFDIEG [K5G]	0.211
PKPLKKLRFDCEG [I11C]	0.347
PKPLKKLRFDIEI [G13I]	-0.233
PKPLKKLYFDIEG [R8Y]	0.234
PKPLKKLRRDIEG [F9R]	0.203
PKCLKKLRFDIEG [P3C]	0.652
PKPLKKLRFEIEG [D10E]	-0.129

Series 3
Target: RING finger protein unkempt homolog, zinc fingers 1-6, GST-SBP tag (UNK, Homo sapiens, UniProt Q9C0B0, residues 30-357)
Technique: RNA Bind-n-Seq
Form: RNA
Matrix: in vitro
Concentration: not given
Notes: RNA with constant flanks, human and mouse sites, ends assumed
Baseline: input RNA pool
Direction: higher = stronger binding
Constant ends, left off below: GGGAGUUCUACAGUCCGACGAUC … CAACAGAGGAUUGAGCAUCA
Residues (chain): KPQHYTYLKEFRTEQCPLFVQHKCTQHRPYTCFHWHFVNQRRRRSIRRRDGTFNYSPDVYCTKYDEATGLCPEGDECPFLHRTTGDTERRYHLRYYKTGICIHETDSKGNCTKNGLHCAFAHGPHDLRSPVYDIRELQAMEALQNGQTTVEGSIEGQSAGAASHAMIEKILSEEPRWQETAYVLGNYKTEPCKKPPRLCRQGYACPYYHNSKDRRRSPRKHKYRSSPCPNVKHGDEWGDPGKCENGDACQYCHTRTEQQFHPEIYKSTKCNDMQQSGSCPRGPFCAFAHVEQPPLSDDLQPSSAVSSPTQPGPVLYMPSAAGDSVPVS
Oligonucleotide	bound/input enrichment [ratio]
AAUUUUCCUCAUCUUGUAGUCGAAAAAAUUCUUGUAAGUCUCACUAUGAAAAACUCAAAAGCUGCAAUGAAGUUUUUUCAAAGUGUGCCAGAAUGUGAACAACACUGCGAAGAUAAAGAA	0.279
CAAGAUUUCCAAAUGUUAAGUAGAAUCUGGACUCAUCCUUGGUGUUUGCAACUGGACUAUAUCAGCAAAGAAAAUAAGGGUUAUUUUGAUGAAGAUAGUAUGGAUGAAUUUAUAGCUUCA	0.462
GACAUUGCAGAGCAUGCUUUGAAAAAUUCUUUAGAAACAGAUAUUCCUACUGUGAAUAUUUUAGCUGAUGAAGAAUUCCUUCCCUUCCAAGAAAACACGUUUGACCUGGUGGUUAGCAGC	0.772
ACUGUCUGUUAUCUUCCUUGCUUCCCAUCGCUGCCUUUGAUUCUGUAAGAGGGGUUUUUUUUUUUUCUCUUUCCCCAACAAGGGUUUGGAUGAUAUGAGAUUUAUUUAUUUAUUCGCUGA	0.522
GAAUUACAGACCUCUAUUUUUUGAAGACCGAGCAGGGAUUAGCUGUGUCAGGAACUUGGAGUUGCACUUAACCUUGUAACUUUGUUUGGAGCUGGCACCUCUUGAAAUAAAAAGGAGGAU	0.371
AAUCACUUUGAAGUCCUCCCUCCCGAGCUGGGAGACUGCCGGGCUCUGAAGCGAGCCGGGCUAGUUGUGGAAGAUGCUCUGUUUGAGACUCUGCCCUCAGAUGUCCGGGAGCAGAUGAAA	0.113
GAUGUCAACAGCUGGCUCCUCACCUUUGGAUUCCAGCUGCACAACGUGAUACCUGGCUAUCCCAAGCCAGACACAGAUGCCAUGGAACCCUCCUACGAGCUCGUACACACACAGAUGAAA	0.192
GAAGAUGACUCUCAAGAAGAGGAAGAAGUCAGCCUACCCAAACGAGGAAGACCACAAGUUAGAUUGCCAGUUAAAACAAGAGGGAAACUUAGCUCUUCUUUCUCAAGUCGUGGCCAACAA	0.27
UAUACCCCUCCUCUCCAGUCACCAAUUACAGAUGGCGAUCCUUUACUGGGGCAGUCACCUUGGAGAAGUAAAGUUUCUGGCUCUGACACGGAGACGUUAGGAGGCUUUCCAGUGGAAUUC	0.239
AGGAAUUACAGGUCUUCAAGAUAUUUUUCCUUUAAAUUGUGAACAUUUUAUCUUGCACUGUAAUUGGCUGUCUCCAUAAGGAAUGAUUUAUUCUUGGAUUCUGACAUUCCUGUGUAUACU	0.0908
AGAGUGAAAAUUCUUCGAGAUUAUGCUGGCCUUAUACUUUUCCUAGAAGAGGAUCACUACUUAGCCCCAGACUUUUACCAUGUCUUCAAAAAGAUGUGGAAACUGAAGCAGCAAGAGUGC	0.301

Series 4
Target: UBE2E2 UBC core domain (UniProt Q96LR5)
UniProt Q96LR5, sequence (whole entry, looked up): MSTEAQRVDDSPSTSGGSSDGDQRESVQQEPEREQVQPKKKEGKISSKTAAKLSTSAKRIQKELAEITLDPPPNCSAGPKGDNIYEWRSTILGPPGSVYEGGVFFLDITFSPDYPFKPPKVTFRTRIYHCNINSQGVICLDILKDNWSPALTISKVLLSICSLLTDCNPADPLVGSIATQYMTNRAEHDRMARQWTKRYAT
Technique: yeast two-hybrid
Matrix: yeast
Notes: mostly zero background
Baseline: not given
Direction: higher = stronger interaction
B1: HLTF RING domain (UniProt Q14527); chain LILSSGSDEECAICLDSLTVPVITHCAHVFCKPCICQVIQNEQPHAKCPLCRNDIHEDNLLE
B2: RNF6 RING domain (UniProt Q9Y252); chain NSIDSELGKICSVCISDYVTGNKLRQLPCMHEFHIHCIDRWLSENCTCPICRQPVLGSNIAN
B3: TRIM11 RING domain (UniProt Q96F44); chain LSTNLQEEATCAICLDYFTDPVMTDCGHNFCRECIRRCWGQPEGPYACPECRELSPQRNLRP
B4: MID2 RING domain (UniProt Q9UJV3); chain KMETLESELTCPICLELFEDPLLLPCAHSLCFSCAHRILVSSCSSGESIEPITAFQCPTCRYVISLNHRGL
B5: ARIH2 RING domain (UniProt O95376); chain HVPTSHPPHHCAVCMQFVRKENLLSLACQHQFCRSCWEQHCSVLVKDGVGVGVSCMAQDCPLRTPEDFVF
B6: RUFY1 RING domain (UniProt Q96T51); chain QALKGHAWLKDDEATHCRQCEKEFSISRRKHHCRNCGHIFCNTCSSNELALPSYPKPVRVCDSCHTLLLQRCSSTAS
B7: BFAR RING domain (UniProt Q9NZS9); chain GPQISVSEFSCHCCYDILVNPTTLNCGHSFCRHCLALWWASSKKTECPECREKWEGFPKVS
B8: MKRN3 RING domain (UniProt Q13064); chain FAVQRGMDKVCGICMEVVYEKANPNDRRFGILSNCNHSFCIRCIRRWRSARQFENRIVKSCPQCRVTSELVIPSE
Sequence	lacZ reporter activity
B1 (HLTF RING domain)	0
B2 (RNF6 RING domain)	0
ASPKIFQKTKCSICNSALELPSVHFLCGHSFHQHCFESYSESDADCPTCLPENRKVMDMI (VPS11 RING domain (UniProt Q9H270))	0
B3 (TRIM11 RING domain)	0
B4 (MID2 RING domain)	0
LVKDFNPYITCYICKGYLIKPTTVTECLHTFCKTCIVQHFEDSNDCPRCGNQVHETNPLE (PCGF5 RING domain (UniProt Q86SE9))	0
B5 (ARIH2 RING domain)	0
B6 (RUFY1 RING domain)	0
B7 (BFAR RING domain)	0
FDPPLESKYECPICLMALREAVQTPCGHRFCKACIIKSIRDAGHKCPVDNEILLENQLFP (TRAF6 RING domain (UniProt Q9Y4K3))	0
B8 (MKRN3 RING domain)	0
LEALSSDFLACKICLEQLRAPKTLPCLHTYCQDCLAQLADGGRVRCPECRETVPVPPEGV (TRIM56 RING domain (UniProt Q9BRZ2))	0
DDVLTKDAGECVICLEELLQGDTIARLPCLCIYHKSCIDSWFEVNRSCPEHPAD (ZNRF1 RING domain (UniProt Q8ND25))	0

Repeated from above (series 2):
Variant	normalised enrichment score
PKPLKKLYFDIEG [R8Y]	0.234
PKPHKKLRFDIEG [L4H]	0.0586
PKPLKKLRFEIEG [D10E]	-0.129
PKPLKKLRFRIEG [D10R]	0.718
PKPLKKLRFDIEI [G13I]	-0.233
PEPLKKLRFDIEG [K2E]	0.138
